Measurements from different studies.
Every numbered part comes from another study and shows a few of its results, in no order. Positions count from the first letter of the parent shown.

Set 1
Target: CCNA1, cyclin fold, Cln2 fusion (human)
Technique: yeast growth competition, sequencing
Sample: yeast
Notes: weak parent motif
Baseline: not given
Reading: higher = stronger binding
Parent: GMNC docking peptide (human); KNAKRNLSSEFAN; partner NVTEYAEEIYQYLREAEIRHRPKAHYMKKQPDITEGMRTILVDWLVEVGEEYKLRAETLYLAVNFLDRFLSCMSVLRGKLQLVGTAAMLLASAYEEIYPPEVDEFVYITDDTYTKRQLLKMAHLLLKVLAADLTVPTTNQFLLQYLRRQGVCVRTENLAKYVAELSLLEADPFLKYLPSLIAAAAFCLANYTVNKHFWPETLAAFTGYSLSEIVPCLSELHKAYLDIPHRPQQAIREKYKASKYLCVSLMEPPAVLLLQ
Variant | normalised enrichment score
S9Q | 0.561
E10V | 0.177
L7D | 0.0694
E10I | 0.314
S9K | 0.582
S9M | 0.316
L7A | 0.335
E10M | 0.0578
R5K | 0.243
R5V | -0.459
S8G | 0.616
R5M | 0.419
A12T | 0.713
K4W | -0.00565
K4D | 0.0356
K4F | 0.00276
E10L | -0.214
E10N | 0.151
S8R | 0.215
N2P | 0.708

Set 2
Target: Fragile X messenger ribonucleoprotein 1, C-terminal low-complexity region (Fmr1, Mus musculus, UniProt P35922)
Technique: RNA Bind-n-Seq
Form: RNA
Sample: in vitro
Concentration: 200 nM
Notes: whole 134-nt RNA, ends assumed
Added: 150 mM KCl
Baseline: input library
Reading: higher = stronger binding
Oligonucleotide | log2 enrichment
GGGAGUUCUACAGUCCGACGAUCUUGACCUAGAGGAUGAGACCAUUGAUGCCGAGGUCAUGAACUCUCUAGCAGUUACUAUGGAUGACUUCCGGGUAAGGACCACACCCGUGCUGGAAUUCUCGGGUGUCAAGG | -2.01
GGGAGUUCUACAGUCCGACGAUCCAAGUCCUGUGCUACACAUCGUAUGUACCGAAUCGGAAAGGGAAAGGGAAAGGGGAAAGUAUUAUGUUACGCCGUUCGGAUCUGCACUUCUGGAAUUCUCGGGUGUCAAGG | -0.0484
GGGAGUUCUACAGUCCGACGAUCUGGCCCUGGUGGCAUGCGGGGAGGAAGAGGUGGCCUCAUGGAUCGUGGUGGUCCCGGUGGAAUGUUCAGAGGUGGCCGUGGUGAAGACAGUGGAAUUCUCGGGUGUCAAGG | -0.151
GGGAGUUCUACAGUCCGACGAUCCAAGUCCUGUGCUACACAUCGUAUGUACCGAAUCGGAAAAGGAAAAGGAAAAGGGGAAAGUAUUAUGUUACGCCGUUCGGAUCUGCACUUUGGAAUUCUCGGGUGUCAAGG | -0.627
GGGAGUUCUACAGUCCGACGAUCUUGAAAGAAUUUGCCAACUUUGACUUUGAUGUCUGGAGGAAAAAGUAUAUGCGUUGGAUGAAUCACAAAAAGUCUCGAGUGAUGGAUUUCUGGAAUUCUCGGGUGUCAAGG | -1.73
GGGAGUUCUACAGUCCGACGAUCCACAGACAACACGCACCCACACAGACACAGAGGGAAGGGGUUGGGAUGGGGACAGGGUGCACAGCAGGGCGGGGUAGGACCCAAACCCCUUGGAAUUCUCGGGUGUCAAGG | 1.18
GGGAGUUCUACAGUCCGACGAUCUCCUCAAGUCCUGUGCUACACAUCGUAUGUACCGAAUCGGAGGGGAGGGAGGAAAGUAUUAUGUUACGCCGUUCGGAUCUGCACUUCCAGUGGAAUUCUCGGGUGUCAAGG | 0.24
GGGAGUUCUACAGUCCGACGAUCCAAGUCCUGUGCUACACAUCGUAUGUACCGAAUCGGGGAAAGGAAAGGAAAGGGGAAAGUAUUAUGUUACGCCGUUCGGAUCUGCACUUCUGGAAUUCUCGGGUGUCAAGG | -0.2
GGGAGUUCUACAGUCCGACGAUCAAGUCCUGUGCUACACAUCGUAUGUACCGAAUCGGGCCCCGGGCCCCGGGCCCCGGAAAGUAUUAUGUUACGCCGUUCGGAUCUGCACUUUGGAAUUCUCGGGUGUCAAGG | -0.642
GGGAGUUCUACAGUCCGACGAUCUGGGAGGUGGAUUUUGUUUAUUUUUUUAGCUCAUUUCCAGGGGUGGGAUUUUUUUUUUAAUAUGUGUCAUGAAUAAAGUUGUUUUUGAAAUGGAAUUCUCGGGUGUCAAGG | 0.335
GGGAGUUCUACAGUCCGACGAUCUUUCUCUCACCAGGUACCAGGUCAUCAGUACACCAUCUGAUAUUUUCAUGGUGAUGGAAUAUGUCUCAGGAGGAGAGCUAUUUGAUUAUAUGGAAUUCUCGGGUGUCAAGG | -0.983
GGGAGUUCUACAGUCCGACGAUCUAACUUUAGAGGAGGAUCUGAUGGAUAUGGCAGUGGACGUGGAUUUGGGGAUGGCUAUAAUGGGUAUGGAGGAGGACCUGGAGGCGGCAAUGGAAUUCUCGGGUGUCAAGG | 0.153
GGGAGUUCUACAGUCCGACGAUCAGUCCUGUGCUACACAUCGUAUGUACCGAAUCGGGGCCCCGGGGCCCCGGGCCCCGGGAAAGUAUUAUGUUACGCCGUUCGGAUCUGCACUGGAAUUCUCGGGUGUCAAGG | -1.59

Set 3
Target: RNA binding protein fox-1 homolog 2, RRM domain, GST-SBP tag (RBFOX2, Homo sapiens, UniProt O43251-10, residues 100-194)
Technique: RNA Bind-n-Seq
Form: RNA
Sample: in vitro
Concentration: 365 nM
Notes: natural RNA segment, single round, ends assumed
Baseline: no-protein control
Reading: higher = stronger binding
Residues (chain): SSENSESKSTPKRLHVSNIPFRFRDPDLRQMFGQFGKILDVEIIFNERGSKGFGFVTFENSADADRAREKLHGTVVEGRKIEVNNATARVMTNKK
Oligonucleotide | RBNS enrichment (R)
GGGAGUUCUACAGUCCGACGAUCAUCAUCAUACUCUAGAAUCUUGUCUGUCACUCACUACAUGAAUAAGCAAAUAUUGUCUUCAAAAGAAUGCACAAGAACCACAAUUAAGAUGUCAUAUUAUUUUGAAAGUAUGGAAUUCUCGGGUGCCAA | 0.476
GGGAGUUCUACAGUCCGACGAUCGCGUUAACCUGUUCCCUUCUCUAUCCUUCCCCGUGGUACUGAGCUCACGUGGACUCCCAGUGCGAAGGGGCCCAUGGGUUGGGCUGCAGGCCUGGCCGUGAGCGGGGGCUUGGAAUUCUCGGGUGCCAA | 0.539
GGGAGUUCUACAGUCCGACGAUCCCGGGCCCGCUCAGGAUGCCCUGGCCCAGGCUUGGGGCUGCUGGGGUUGGAAUGUGGAACUGCAGCCUCAGCCCAUCUGGCAGAGUCCCAGGAACUCGGAGACUGGCACAUGGAAUUCUCGGGUGCCAA | 0.614
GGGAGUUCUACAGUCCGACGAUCUGUCAGCAGAGUCUCCAAGCCCCACGAACCCUGAGGAGUGGAGUCAUACGCGAAGGCCAUAUGGCCAUCGUGUCAGCAGAGAGAGUCUCUGUACACAGCCCCGUGAACCCUGGAAUUCUCGGGUGCCAA | 0.225
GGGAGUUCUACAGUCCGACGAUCUUCUACACAUAUGCUUUCUGGCAGCGAGUUUAUUGCCAGAUUUUAAACAGGGAGUUAUGUGGUGCUUGUGGCGCUUUCAGAACCCAAAGAUUUGUAGUCUGGAAUCAUGUUGGAAUUCUCGGGUGCCAA | 1.8
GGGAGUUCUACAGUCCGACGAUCUUUAUGCCUAGGCUUGUCAAGAAUCUGUUCAGUCCCUCUCCUUCUCAAUAAAAGCAUCUUCAAGCUUUCAUGUGCCUCCCUCGCAGCUUCUUCUGGGCCUGAGGGAGACCUGGAAUUCUCGGGUGCCAA | 0.321
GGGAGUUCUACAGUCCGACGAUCGAACUAAACUAGUAAAAAUAUCUGAACAAAAAACCUUUCGUUGUUGGCAUAAAAAUGUGAUACACUUAGAGACAUUUUGUUUAUUGCAUAUAAAUCUAAUUUUUCCAUAAUGGAAUUCUCGGGUGCCAA | 0.539
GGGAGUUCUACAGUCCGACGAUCGUGGGAUCUACAGAGAAAGCCAUUCUGUGCAUCCCUGAGUAAGGAGCAAGUGAUCAGGUGUCUAUAACAUUUUUCAUUCUCUCUGGAAACAGACUCAGGUUUCUUUGGACUGGAAUUCUCGGGUGCCAA | 0.385
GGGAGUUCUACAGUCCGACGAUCACUCAUCCAAUGCAGAGUCUCGCUCCUAGCUGCCUACCCGAGAUCCCUUGCUUCAACCUCCCCAGGUGGGGGACCUGGCCUCUGCCUAAAUGCUUCUGGAGACGGAAACAUGGAAUUCUCGGGUGCCAA | 0.197
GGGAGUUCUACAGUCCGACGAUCGUCUUUUCCUAUCCGAGAUUCUAGAGGAGGAAGACCUUGGGCUCCGACUACUUCAAAAUGAUCUGAAAAGUUAUCACACAAAAAGGGUCUACUGUAGGAUCUUACAUUCUUGGAAUUCUCGGGUGCCAA | 0.275
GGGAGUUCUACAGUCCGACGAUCAUGGUAGGCUGAGUUUGCUGUCCAAUAGCUGUGUGACUUUGGGCAAGUCCCAGUCACCUUCCUGGCCUCACUGUCCUCAGCUGUAACCUGGGCAUUUGAGAGGUACAGGCUGGAAUUCUCGGGUGCCAA | 0.309
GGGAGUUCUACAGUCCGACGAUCACUUAUCUUGGGAAUGCCUGCAUGAGGAAGGAGAACGACCUGCCCUGAGGGUCAGUGCUCAGCCCAGCCCUCCACUGUUGGUGGCAACCGUGGGACACCUCAUUCCCUACUGGAAUUCUCGGGUGCCAA | 8.28

Set 4
Substance: PhoQ, residues 284 288 289 292 302 303 SMMNNA
Technique: Sort-seq
Refers to: YFP reporter
Sample: E. coli
Notes: PhoQ-PhoP variant library
Added: 10 µM Mg2+
Baseline: high Mg2+ state
Reading: higher = stronger signaling
target | fold induction
PhoP, residues 12 14 15 18 19 QYFSL (Escherichia coli, UniProt P23836) | 1.92
PhoP, residues 12 14 15 18 19 NYFRM (Escherichia coli, UniProt P23836) | 12.1
PhoP, residues 12 14 15 18 19 TQALL (Escherichia coli, UniProt P23836) | 72.1

Some of these lines once more (set 1):
Variant | normalised enrichment score
K4F | 0.00276
S9Q | 0.561
E10N | 0.151
S9M | 0.316
